Experimental data from different studies.
Lines come from different studies, so protocols differ. Several values in a cell are separate wells, animals, samples, runs or records. ± marks the error that the study gave.

SMILES | assay | test system | conditions | scale | endpoint | value
CCCCCCCCCC[N+](C)(C)CCCCCCCCCC | ultrafiltration | human serum | – | – | unbound fraction in blood | 0.08
CC[C@H](C)[C@H](NC(=O)[C@H](CC(C)C)NC(=O)[C@H](Cc1c[nH]c2ccccc12)NC(=O)[C@H](CCC(N)=O)NC(=O)[C@@H](NC(=O)[C@H](Cc1ccccc1)NC(=O)[C@H](C)NC(=O)[C@H](CCCCNC(=O)COCCOCCNC(=O)COCCOCCNC(=O)CC[C@H](NC(=O)CCCCCCCCCCCCCCCCCCC(=O)O)C(=O)O)NC(=O)[C@H](CCC(N)=O)NC(=O)[C@H](C)NC(=O)[C@@H](NC(=O)[C@H](CCCCN)NC(=O)[C@H](CC(=O)O)NC(=O)[C@H](CC(C)C)NC(=O)C(C)(C)NC(=O)[C@@H](NC(=O)[C@H](CO)NC(=O)[C@H](Cc1ccc(O)cc1)NC(=O)[C@H](CC(=O)O)NC(=O)[C@H](CO)NC(=O)[C@@H](NC(=O)[C@H](Cc1ccccc1)NC(=O)[C@@H](NC(=O)CNC(=O)[C@H](CCC(=O)O)NC(=O)C(C)(C)NC(=O)[C@@H](N)Cc1ccc(O)cc1)[C@@H](C)O)[C@@H](C)O)[C@@H](C)CC)[C@@H](C)CC)C(C)C)C(=O)N[C@@H](C)C(=O)NCC(=O)NCC(=O)N1CCC[C@H]1C(=O)N[C@@H](CO)C(=O)N[C@@H](CO)C(=O)NCC(=O)N[C@@H](C)C(=O)N1CCC[C@H]1C(=O)N1CCC[C@H]1C(=O)N1CCC[C@H]1C(=O)N[C@@H](CO)C(N)=O | – | human, mild hepatic impairment, plasma | subcutaneous, 5 mg | – | AUC(0-inf) | 94.3 µg·h/mL
Cn1c(N)nc2ncc(-c3ccccc3)cc21 | – | human | 4900 ng oral, time not given | relative to: dose | urinary recovery after acid hydrolysis | < 3%
CC[C@H](C)[C@@H]1NC(=O)[C@H]([C@@H](C)O)NC(=O)[C@@H](NC(=O)[C@H](Cc2ccccc2)NC(=O)[C@H](C)NC(=O)[C@H](CCCCN)NC(=O)[C@H](CCCCN)NC(=O)[C@H](C)NC(=O)[C@@H](NC(=O)[C@H](CCCCN)NC(=O)[C@H](C)NC(=O)[C@H](C)NC(=O)[C@@H](NC(=O)CNC(=O)[C@H](C)NC(=O)[C@@H](NC(=O)[C@H](CCCCN)NC(=O)[C@@H]2CCCN2C(=O)[C@H](Cc2ccccc2)NC(=O)[C@@H](N)Cc2ccccc2)C(C)C)C(C)C)C(C)C)CSSC[C@@H](C(=O)O)NC(=O)[C@H](CCCCN)NC(=O)[C@H](CCCCN)NC(=O)[C@H](CO)NC1=O | haemolysis | horse erythrocytes | 2 h, 37 °C | – | HC50 | > 128 µM
CSCC[C@@H]1NC(=O)[C@H](CC(=O)O)NC(=O)CNC(=O)[C@H](CCCNC(=N)N)NC(=O)[C@H](C)NC(=O)[C@H](CCC(=O)O)NC(=O)[C@H](CCCNC(=N)N)NC(=O)[C@@H]2CSSC[C@@H]3NC(=O)[C@H](CO)NC(=O)[C@H]([C@@H](C)O)NC(=O)[C@@H]4CCCN4C(=O)[C@H](C)NC(=O)[C@H](Cc4c[nH]c5ccccc45)NC(=O)[C@H](CC(=O)O)NC(=O)CNC(=O)[C@H](CCCNC(=N)N)NC(=O)CNC(=O)[C@H](CCC(N)=O)NC(=O)[C@@H]4CCCN4C(=O)[C@@H](NC(=O)CNC(=O)C(C)F)CSSC[C@H](NC(=O)CNC(=O)[C@H](C)NC(=O)[C@H](CC(C)C)NC(=O)[C@H](CSSC[C@@H](C(=O)NCC(N)=O)NC(=O)[C@H]([C@@H](C)O)NC(=O)[C@H](CCCNC(=N)N)NC(=O)[C@@H]4CCCN4C1=O)NC(=O)[C@H](CC(=O)O)NC(=O)[C@H](CO)NC(=O)[C@H](CC(=O)O)NC(=O)[C@H](CCC(N)=O)NC(=O)[C@H](CO)NC3=O)C(=O)N[C@@H](C(C)C)C(=O)N2 (stereo partly drawn) [fluorine-18 labelled] | – | nude mice U-87 MG xenograft, kidneys | intravenous, 2.5 h | – | tissue uptake | 1.1 ± 0.22 %ID/g
CN[C@@](C)(C[18F])C(=O)O | – | SCID mouse U87 xenograft, lung | 60 min, post injection | – | tissue uptake | 2.5 ± 0.4 %ID/g
Nc1nc(N)nc(N)n1 | LC-MS/MS | non-pregnant female rat, serum | oral, 1000 mg/kg/day, 10 days | – | serum concentration | 767 µg/mL and 268 µg/mL and 302 µg/mL and 170 µg/mL and 73.7 µg/mL
O[C@H]1CCCN[C@@H]1CCCn1cnc2c(Cl)c(Cl)ccc21 | – | human, plasma | oral, 300 mg single dose, capsule, geometric mean | – | AUC(0-inf) | 1.53 µg·h/mL
Cc1cc(C(C#N)c2ccc(Cl)cc2)c(Cl)cc1NC(=O)c1cc(I)cc(I)c1O (stereo not drawn) | – | parasitized lambs, plasma | subcutaneous, 5 mg/kg, together with: moxidectin 0.2 mg/kg subcutaneous | – | AUC(0-LOQ) | 39500 ± 7820 µg·h/mL
CC(=O)N[C@H](CCCCNC(=O)C(C)F)C(=O)N[C@@H](CS)C(=O)N[C@@H](CS)C(=O)N[C@@H](CCC(=O)O)C(=O)N[C@@H](Cc1c[nH]cn1)C(=O)N[C@H](Cc1ccccc1)C(=O)N[C@@H](CCCNC(=N)N)C(=O)N[C@@H](Cc1c[nH]c2ccccc12)C(=O)N[C@@H](CS)C(=O)N[C@@H](CCCNC(=N)N)C(=O)N1CCC[C@H]1C(=O)N[C@H](C(N)=O)C(C)C (stereo partly drawn) [fluorine-18 labelled] | – | C57BL/6 mice, male, B16-F10 tumour, pancreas | intravenous, 4 h | – | tissue uptake | 0.06 ± 0.01 %ID/g
CCCCCOc1ccc(-c2ccc(-c3ccc(C(=O)N[C@H]4C[C@@H](O)[C@@H](OCC[N+](C)(C)C)NC(=O)[C@@H]5[C@@H](O)[C@@H](C)CN5C(=O)[C@H]([C@@H](C)O)NC(=O)[C@H]([C@H](O)[C@@H](O)c5ccc(O)cc5)NC(=O)[C@@H]5C[C@@H](O)CN5C(=O)[C@H]([C@@H](C)O)NC4=O)cc3)cc2)cc1 | – | healthy adult humans, plasma | subcutaneous, 10 mg, mean | – | Vz/F | 71.9 L
CC(C)C[C@H](NC(=O)[C@H](CCC(=O)O)NC(=O)[C@@H](NC(=O)[C@H](CC(C)C)NC(=O)[C@@H](NC(=O)[C@H](CCCCN)NC(=O)[C@@H](NC(=O)[C@H](CC(C)C)NC(=O)[C@H](CCC(=O)O)NC(=O)[C@H](CCCCN)NC(=O)[C@H](CC(C)C)NC(=O)[C@@H](NC(=O)[C@H](CCC(=O)O)NC(=O)[C@@H](NC(=O)[C@H](CC(C)C)NC(=O)[C@@H](NC(=O)[C@H](CCCCN)NC(=O)[C@H](CC(C)C)NC(=O)c1ccc2c(c1)C(=O)OC21c2ccc(O)cc2Oc2cc(O)ccc21)[C@@H](C)O)[C@@H](C)O)[C@@H](C)O)[C@@H](C)O)[C@@H](C)O)[C@@H](C)O)C(=O)O | no effect | Sprague-Dawley rat, excised skin | 50 µmol/L, 37 °C, FAM-labelled CPP conjugate | relative to: free FAM | apparent skin permeability | no effect

Excerpt of the above:
SMILES | assay | test system | conditions | scale | endpoint | value
CC[C@H](C)[C@@H]1NC(=O)[C@H]([C@@H](C)O)NC(=O)[C@@H](NC(=O)[C@H](Cc2ccccc2)NC(=O)[C@H](C)NC(=O)[C@H](CCCCN)NC(=O)[C@H](CCCCN)NC(=O)[C@H](C)NC(=O)[C@@H](NC(=O)[C@H](CCCCN)NC(=O)[C@H](C)NC(=O)[C@H](C)NC(=O)[C@@H](NC(=O)CNC(=O)[C@H](C)NC(=O)[C@@H](NC(=O)[C@H](CCCCN)NC(=O)[C@@H]2CCCN2C(=O)[C@H](Cc2ccccc2)NC(=O)[C@@H](N)Cc2ccccc2)C(C)C)C(C)C)C(C)C)CSSC[C@@H](C(=O)O)NC(=O)[C@H](CCCCN)NC(=O)[C@H](CCCCN)NC(=O)[C@H](CO)NC1=O | haemolysis | horse erythrocytes | 2 h, 37 °C | – | HC50 | > 128 µM
CSCC[C@@H]1NC(=O)[C@H](CC(=O)O)NC(=O)CNC(=O)[C@H](CCCNC(=N)N)NC(=O)[C@H](C)NC(=O)[C@H](CCC(=O)O)NC(=O)[C@H](CCCNC(=N)N)NC(=O)[C@@H]2CSSC[C@@H]3NC(=O)[C@H](CO)NC(=O)[C@H]([C@@H](C)O)NC(=O)[C@@H]4CCCN4C(=O)[C@H](C)NC(=O)[C@H](Cc4c[nH]c5ccccc45)NC(=O)[C@H](CC(=O)O)NC(=O)CNC(=O)[C@H](CCCNC(=N)N)NC(=O)CNC(=O)[C@H](CCC(N)=O)NC(=O)[C@@H]4CCCN4C(=O)[C@@H](NC(=O)CNC(=O)C(C)F)CSSC[C@H](NC(=O)CNC(=O)[C@H](C)NC(=O)[C@H](CC(C)C)NC(=O)[C@H](CSSC[C@@H](C(=O)NCC(N)=O)NC(=O)[C@H]([C@@H](C)O)NC(=O)[C@H](CCCNC(=N)N)NC(=O)[C@@H]4CCCN4C1=O)NC(=O)[C@H](CC(=O)O)NC(=O)[C@H](CO)NC(=O)[C@H](CC(=O)O)NC(=O)[C@H](CCC(N)=O)NC(=O)[C@H](CO)NC3=O)C(=O)N[C@@H](C(C)C)C(=O)N2 (stereo partly drawn) [fluorine-18 labelled] | – | nude mice U-87 MG xenograft, kidneys | intravenous, 2.5 h | – | tissue uptake | 1.1 ± 0.22 %ID/g
